# Experimental data gathered from unrelated publications.
# Every numbered part comes from another study and shows a few of its results, in no order. Values joined by “and” are separate records of one study, mostly repeats; a detail may differ.
# Sequence of UniProt Q9UEE5 (whole entry, looked up): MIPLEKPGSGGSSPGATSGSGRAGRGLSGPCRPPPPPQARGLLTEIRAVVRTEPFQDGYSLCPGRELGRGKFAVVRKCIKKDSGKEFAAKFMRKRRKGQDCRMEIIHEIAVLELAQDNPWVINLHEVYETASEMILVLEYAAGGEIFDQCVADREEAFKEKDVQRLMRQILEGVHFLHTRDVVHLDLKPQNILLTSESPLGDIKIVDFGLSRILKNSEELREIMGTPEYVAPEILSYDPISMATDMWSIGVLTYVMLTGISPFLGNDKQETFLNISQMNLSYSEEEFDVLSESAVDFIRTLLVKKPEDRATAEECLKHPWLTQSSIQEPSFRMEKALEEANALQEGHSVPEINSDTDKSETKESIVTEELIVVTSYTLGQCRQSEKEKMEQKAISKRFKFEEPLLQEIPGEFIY
# Sequence of UniProt Q9Y2K2 (whole entry, looked up): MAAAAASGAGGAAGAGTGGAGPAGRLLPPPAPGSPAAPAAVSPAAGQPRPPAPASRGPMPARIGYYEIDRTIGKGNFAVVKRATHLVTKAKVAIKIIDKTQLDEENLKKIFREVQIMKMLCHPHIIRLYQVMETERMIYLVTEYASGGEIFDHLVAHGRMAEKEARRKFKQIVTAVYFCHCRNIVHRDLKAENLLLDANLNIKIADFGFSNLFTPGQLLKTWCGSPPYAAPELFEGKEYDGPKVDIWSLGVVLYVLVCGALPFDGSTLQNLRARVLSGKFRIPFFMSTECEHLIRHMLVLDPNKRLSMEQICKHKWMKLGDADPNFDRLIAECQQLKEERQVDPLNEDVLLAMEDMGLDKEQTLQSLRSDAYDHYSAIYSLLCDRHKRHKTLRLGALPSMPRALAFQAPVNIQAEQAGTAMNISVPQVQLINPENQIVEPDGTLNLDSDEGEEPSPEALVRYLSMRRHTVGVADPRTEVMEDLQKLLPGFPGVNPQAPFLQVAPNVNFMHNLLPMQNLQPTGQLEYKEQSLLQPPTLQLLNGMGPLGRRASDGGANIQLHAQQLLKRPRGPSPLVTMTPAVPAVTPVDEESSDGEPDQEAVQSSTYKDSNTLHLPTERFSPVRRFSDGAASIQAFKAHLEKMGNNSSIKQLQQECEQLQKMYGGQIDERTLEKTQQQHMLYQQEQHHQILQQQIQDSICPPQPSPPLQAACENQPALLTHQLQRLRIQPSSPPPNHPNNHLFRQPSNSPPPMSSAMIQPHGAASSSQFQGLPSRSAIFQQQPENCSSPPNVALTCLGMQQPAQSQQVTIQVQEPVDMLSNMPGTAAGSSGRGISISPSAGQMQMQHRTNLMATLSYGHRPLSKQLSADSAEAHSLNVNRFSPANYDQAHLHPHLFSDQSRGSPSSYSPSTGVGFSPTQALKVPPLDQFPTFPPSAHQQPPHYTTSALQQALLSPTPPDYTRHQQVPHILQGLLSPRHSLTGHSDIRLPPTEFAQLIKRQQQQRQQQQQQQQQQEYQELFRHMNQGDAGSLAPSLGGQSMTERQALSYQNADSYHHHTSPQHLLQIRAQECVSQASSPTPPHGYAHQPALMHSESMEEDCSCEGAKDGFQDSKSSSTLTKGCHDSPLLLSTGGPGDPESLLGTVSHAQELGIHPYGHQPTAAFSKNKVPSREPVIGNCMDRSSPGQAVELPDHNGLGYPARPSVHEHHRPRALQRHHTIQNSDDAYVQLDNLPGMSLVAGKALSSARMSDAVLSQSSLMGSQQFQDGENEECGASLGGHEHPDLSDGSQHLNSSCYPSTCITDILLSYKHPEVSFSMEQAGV
# Sequence of UniProt Q9HC98 (whole entry, looked up): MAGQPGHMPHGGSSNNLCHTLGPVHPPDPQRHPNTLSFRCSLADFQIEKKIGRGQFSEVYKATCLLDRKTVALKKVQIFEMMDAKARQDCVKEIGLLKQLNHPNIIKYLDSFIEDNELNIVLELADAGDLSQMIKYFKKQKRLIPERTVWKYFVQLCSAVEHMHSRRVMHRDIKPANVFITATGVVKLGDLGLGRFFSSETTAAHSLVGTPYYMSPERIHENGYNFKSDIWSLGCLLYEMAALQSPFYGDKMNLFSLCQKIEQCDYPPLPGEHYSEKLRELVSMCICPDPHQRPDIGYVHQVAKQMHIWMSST

# Block 1
# Compound: CC[C@@]1(c2cccc(-c3c(F)cncc3OC)c2)C2=C(Nc3n[nH]cc31)[C@H](F)C(C)(C)CC2=O (single isomer, unassigned)
# Concentration: 1 µM
target,assay,scale,remaining binding [%]
"IRAK3 (Homo sapiens, UniProt Q9Y616)","binding, competition with immobilised ligand",,73
"STK17A (Homo sapiens, UniProt Q9UEE5)","binding, competition with immobilised ligand",,81
"Tyrosine-protein kinase ABL1, non-phosphorylated (ABL1, Homo sapiens, UniProt P00519, Q252H)","kinase binding, KINOMEscan",baseline: DMSO control,78
"Ribosomal protein S6 kinase alpha-3, C-terminal kinase domain (RPS6KA3, Homo sapiens, UniProt P51812)","binding, competition with immobilised ligand",,68
"GRK3 (Homo sapiens, UniProt P35626)","binding, competition with immobilised ligand",,100
"CDK8 (Homo sapiens, UniProt P49336)","kinase binding, KINOMEscan",baseline: DMSO control,100
"NEK11 (Homo sapiens, UniProt Q8NG66)","binding, competition with immobilised ligand",,75
"HUNK (Homo sapiens, UniProt P57058)","binding, competition with immobilised ligand",,82
"PDGFRA (Homo sapiens, UniProt P16234)","kinase binding, KINOMEscan",baseline: DMSO control,79
"MET (Homo sapiens, UniProt P08581, Y1235D)","kinase binding, KINOMEscan",baseline: DMSO control,75
"Tyrosine-protein kinase ABL1, phosphorylated (ABL1, Homo sapiens, UniProt P00519, F317L)","binding, competition with immobilised ligand",,70
"NEK6 (Homo sapiens, UniProt Q9HC98)","kinase binding, KINOMEscan",baseline: DMSO control,89
"Cyclin-dependent kinase 4, with cyclin D3 (CDK4, Homo sapiens, UniProt P11802)","binding, competition with immobilised ligand",,86
"NUAK1 (Homo sapiens, UniProt O60285)","binding, competition with immobilised ligand",,100
"ERN1 (Homo sapiens, UniProt O75460)","kinase binding, KINOMEscan",baseline: DMSO control,42
"SIK3 (Homo sapiens, UniProt Q9Y2K2)","kinase binding, KINOMEscan",baseline: DMSO control,57
"KDR (Homo sapiens, UniProt P35968)","kinase binding, KINOMEscan",baseline: DMSO control,82
"SNRK (Homo sapiens, UniProt Q9NRH2)","kinase binding, KINOMEscan",baseline: DMSO control,89

# Block 2
# Structure (SMILES): C[C@@H]1CN(c2ccc(-c3cc(C(=O)NCCOCCOCCOCCOCCOCCOCCNC(=O)/C=C/c4[nH]cc(C(=O)N[C@@H](CC(N)=O)c5ccc(F)c(Cl)c5)c4-c4ccc(Cl)cc4F)ccc3F)cc2NC(=O)c2ccc(F)cc2C(F)(F)F)C[C@H](C)N1C
# Effect on: thermal unfolding
# Method: differential scanning fluorimetry
# Concentration: 5.5 µM
# Reading: higher = more unfolded
# WDR5: WD repeat-containing protein 5 (WDR5, Homo sapiens, UniProt P61964)
# DCAF1: DDB1- and CUL4-associated factor 1 (DCAF1, Homo sapiens, UniProt Q9Y4B6)
# Sequence of UniProt Q9Y4B6 (whole entry, looked up): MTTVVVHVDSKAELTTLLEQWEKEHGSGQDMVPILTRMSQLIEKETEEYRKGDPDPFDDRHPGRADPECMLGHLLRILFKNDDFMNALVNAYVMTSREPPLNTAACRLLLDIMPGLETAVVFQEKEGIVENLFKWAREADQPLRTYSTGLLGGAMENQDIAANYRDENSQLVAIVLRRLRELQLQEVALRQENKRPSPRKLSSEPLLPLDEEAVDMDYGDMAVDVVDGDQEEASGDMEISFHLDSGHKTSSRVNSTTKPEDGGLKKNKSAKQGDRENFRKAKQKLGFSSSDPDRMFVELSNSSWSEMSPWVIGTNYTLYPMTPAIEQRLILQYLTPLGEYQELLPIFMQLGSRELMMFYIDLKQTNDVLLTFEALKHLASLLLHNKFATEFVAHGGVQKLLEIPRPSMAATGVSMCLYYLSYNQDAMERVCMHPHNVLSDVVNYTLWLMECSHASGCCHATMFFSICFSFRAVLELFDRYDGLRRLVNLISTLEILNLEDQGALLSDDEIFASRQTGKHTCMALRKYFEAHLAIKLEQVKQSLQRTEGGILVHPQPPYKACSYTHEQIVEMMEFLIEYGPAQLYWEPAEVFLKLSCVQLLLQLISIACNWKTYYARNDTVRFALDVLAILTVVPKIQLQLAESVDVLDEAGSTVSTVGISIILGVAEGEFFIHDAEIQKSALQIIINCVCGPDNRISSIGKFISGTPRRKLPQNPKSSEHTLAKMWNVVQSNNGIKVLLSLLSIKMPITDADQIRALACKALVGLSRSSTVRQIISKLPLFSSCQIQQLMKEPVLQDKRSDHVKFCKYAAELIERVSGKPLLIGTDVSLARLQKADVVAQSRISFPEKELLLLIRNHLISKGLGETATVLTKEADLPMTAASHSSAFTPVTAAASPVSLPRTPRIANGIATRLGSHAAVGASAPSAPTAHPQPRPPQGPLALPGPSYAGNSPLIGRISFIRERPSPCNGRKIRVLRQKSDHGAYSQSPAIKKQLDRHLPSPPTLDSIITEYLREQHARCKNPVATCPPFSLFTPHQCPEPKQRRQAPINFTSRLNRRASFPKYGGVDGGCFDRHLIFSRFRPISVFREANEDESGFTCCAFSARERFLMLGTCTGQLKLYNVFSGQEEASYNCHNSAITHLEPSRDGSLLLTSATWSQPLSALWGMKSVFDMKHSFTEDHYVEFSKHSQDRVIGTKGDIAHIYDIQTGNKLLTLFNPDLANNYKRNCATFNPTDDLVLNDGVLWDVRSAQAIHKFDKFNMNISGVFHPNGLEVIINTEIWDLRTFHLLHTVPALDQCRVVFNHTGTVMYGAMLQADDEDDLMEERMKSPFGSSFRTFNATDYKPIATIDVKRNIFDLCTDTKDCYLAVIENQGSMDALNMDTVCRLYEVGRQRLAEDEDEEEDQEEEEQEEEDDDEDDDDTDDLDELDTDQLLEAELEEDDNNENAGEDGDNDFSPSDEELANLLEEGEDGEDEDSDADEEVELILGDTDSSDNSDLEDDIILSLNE
target,setting,SYPRO Orange fluorescence
WDR5,83.21 °C,64600 a.u.
WDR5,65.21 °C,16500 a.u.
DCAF1,54.81 °C,26400 a.u.
DCAF1,42.2 °C,12900 a.u.
DCAF1,63.21 °C,54000 a.u.
DCAF1,25.6 °C,7460 a.u.
DCAF1,86.81 °C,34400 a.u.
DCAF1,43 °C,13500 a.u.
DCAF1,53.21 °C,22700 a.u.
WDR5,84.81 °C,62400 a.u.
WDR5,47.6 °C,15400 a.u.

# Block 3
# Compound: CCN1/C(=C/C=C2\CCCC(/C=C/C3=[N+](CC)c4ccccc4C3(C)C)=C2NCCCCCCCCN2CCC(Nc3nc4ccccc4n3Cc3ccc(F)cc3)CC2)C(C)(C)c2ccccc21
# Cell line: U-87 MG
# Concentration: concentration not given
# Baseline: DMSO
assay,log2 fold change
refers to: FAT4 mRNA,-1.23
refers to: HS3ST2 mRNA,3.24
refers to: CALHM2 mRNA,-1.66
refers to: HYLS1 mRNA,-1.95
refers to: TNXB mRNA,-1.94
refers to: TYMS mRNA,-1.81
refers to: PTGFRN mRNA,-1.37
refers to: NPR3 mRNA,-1.55
refers to: SYNC mRNA,-1.11
refers to: ADGRB2 mRNA,-1.03
refers to: ALPK1 mRNA,1.18
refers to: CCN2 mRNA,-4.53
refers to: KCNN3 mRNA,1.6
refers to: KIF18A mRNA,-2.1
refers to: TRIP13 mRNA,-1.16

# Block 4
# SMILES: NC/C(=C\F)COc1ccc(Cn2c(=S)[nH]c(=O)c3[nH]cnc32)cc1
# Effect on: enzyme activity
# MPO: Myeloperoxidase (MPO, Homo sapiens, UniProt P05164)
# Sequence of UniProt P05164 (whole entry, looked up): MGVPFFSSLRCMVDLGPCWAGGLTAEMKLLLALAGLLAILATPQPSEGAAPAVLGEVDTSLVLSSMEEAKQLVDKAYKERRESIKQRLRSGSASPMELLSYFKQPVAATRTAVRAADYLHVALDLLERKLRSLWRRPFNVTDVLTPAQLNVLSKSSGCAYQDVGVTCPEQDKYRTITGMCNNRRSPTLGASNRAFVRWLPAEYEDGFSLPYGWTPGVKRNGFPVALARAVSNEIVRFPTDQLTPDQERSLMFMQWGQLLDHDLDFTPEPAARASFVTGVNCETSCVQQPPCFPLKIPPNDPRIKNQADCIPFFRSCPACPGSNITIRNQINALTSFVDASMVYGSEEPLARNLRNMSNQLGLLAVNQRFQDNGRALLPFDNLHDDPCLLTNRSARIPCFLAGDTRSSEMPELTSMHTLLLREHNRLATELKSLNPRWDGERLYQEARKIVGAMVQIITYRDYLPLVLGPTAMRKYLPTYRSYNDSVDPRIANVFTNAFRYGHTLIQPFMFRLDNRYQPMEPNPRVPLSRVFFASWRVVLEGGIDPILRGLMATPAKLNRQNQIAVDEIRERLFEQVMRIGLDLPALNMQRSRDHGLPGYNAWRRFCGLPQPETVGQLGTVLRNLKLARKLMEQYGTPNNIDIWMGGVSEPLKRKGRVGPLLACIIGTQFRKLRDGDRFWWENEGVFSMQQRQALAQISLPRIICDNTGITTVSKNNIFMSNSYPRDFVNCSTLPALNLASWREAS
# AOC3: Amine oxidase [copper-containing] 3 (AOC3, Homo sapiens, UniProt Q16853)
# Sequence of UniProt Q16853 (whole entry, looked up): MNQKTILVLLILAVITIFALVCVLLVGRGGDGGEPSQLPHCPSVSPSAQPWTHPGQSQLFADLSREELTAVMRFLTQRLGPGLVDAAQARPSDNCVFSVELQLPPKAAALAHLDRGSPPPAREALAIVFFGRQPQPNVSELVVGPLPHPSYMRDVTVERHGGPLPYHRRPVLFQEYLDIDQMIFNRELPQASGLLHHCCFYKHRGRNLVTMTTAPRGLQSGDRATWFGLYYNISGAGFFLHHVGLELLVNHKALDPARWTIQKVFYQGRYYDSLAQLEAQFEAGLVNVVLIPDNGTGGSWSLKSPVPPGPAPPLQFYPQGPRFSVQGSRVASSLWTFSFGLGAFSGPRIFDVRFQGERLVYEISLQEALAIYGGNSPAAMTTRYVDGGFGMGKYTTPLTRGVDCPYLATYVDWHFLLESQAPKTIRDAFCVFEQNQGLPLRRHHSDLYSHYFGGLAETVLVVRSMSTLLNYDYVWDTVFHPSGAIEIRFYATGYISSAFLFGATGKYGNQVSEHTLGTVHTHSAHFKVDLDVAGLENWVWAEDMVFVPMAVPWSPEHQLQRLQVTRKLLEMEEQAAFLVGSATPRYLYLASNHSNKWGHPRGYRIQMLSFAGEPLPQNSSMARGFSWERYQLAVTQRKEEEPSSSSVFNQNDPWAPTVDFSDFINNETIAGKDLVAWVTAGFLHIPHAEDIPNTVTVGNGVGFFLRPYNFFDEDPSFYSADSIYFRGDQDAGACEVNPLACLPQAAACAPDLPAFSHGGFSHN
target,assay,setting,inhibition
MPO,"inhibitor, fluorescence",30 µM,49.5%
AOC3,"inhibitor, fluorescence",30 µM,99.7%
MPO,"inhibitor, fluorescence",1.5 nM,-3.07%
AOC3,"inhibitor, fluorescence",1.111 µM,100%
MPO,"inhibitor, fluorescence",3.333 µM,11.6%
MPO,,0.0051 µM,0.309% and -3.99%
AOC3,"inhibitor, fluorescence",3 µM,104%

# Some of these lines once more (block 1):
target,assay,scale,remaining binding [%]
"Tyrosine-protein kinase ABL1, phosphorylated (ABL1, Homo sapiens, UniProt P00519, F317L)","binding, competition with immobilised ligand",,70
"NEK6 (Homo sapiens, UniProt Q9HC98)","kinase binding, KINOMEscan",baseline: DMSO control,89
"Cyclin-dependent kinase 4, with cyclin D3 (CDK4, Homo sapiens, UniProt P11802)","binding, competition with immobilised ligand",,86
"NUAK1 (Homo sapiens, UniProt O60285)","binding, competition with immobilised ligand",,100
"ERN1 (Homo sapiens, UniProt O75460)","kinase binding, KINOMEscan",baseline: DMSO control,42
"SIK3 (Homo sapiens, UniProt Q9Y2K2)","kinase binding, KINOMEscan",baseline: DMSO control,57
